Published values pooled from the literature.
Lines come from different studies, so protocols differ. Several values in a cell are separate wells, animals, samples, runs or records.
Target: Cytoplasmic tyrosine-protein kinase BMX (BMX, Homo sapiens, UniProt P51813)

SMILES | test | setting | how to read | quantity | result
COCC12C(=O)NC3C4(C(OC)CC1O)C1CC5(O)C(OC)C(O)C(OC(C)=O)(C1C5OC(=O)c1ccccc1)C3(O)C(OC)C24 (stereo not drawn) | kinase activity, inhibitor, ProQinase kinase profiling | 25 µM | baseline: control | remaining activity | 97% and 90%
COc1c(Cl)cccc1Nc1c(-c2ccncc2C#C[C@@]2(C)CCCN2C(=O)/C=C/CN(C)C)[nH]c2c1C(=O)NCC2 | binding, competition with immobilised ligand | 3 µM |  | remaining binding | 100%
CCN1CCN(Cc2ccc(NC(=O)c3ccc(C)c(NC(=O)c4cncc(-c5cccs5)c4)c3)cc2C(F)(F)F)CC1 | binding, competition with immobilised ligand | 1 µM |  | remaining binding | 0.35%
C=CC(=O)Nc1cccc(-c2cnc3[nH]cc(C(=O)NC(C)(C)C)c3n2)c1 | kinase activity | 0.1 µM |  | inhibition | 69% and 68%
C[C@H]1CN(C(=O)c2cn(-c3ccnc(N)n3)c3cc(C#CC4(O)CCCCC4)ccc23)CCN1 | enzyme activity, inhibitor, FRET | 1 µM |  | inhibition | 0%
NC(=O)C[C@H]1CCc2sc3ncnc(O[C@H]4CC[C@H](N5CCOCC5)CC4)c3c21 | enzyme activity, inhibitor | 10 µM |  | inhibition | 2%
CNC1C[S+]2CC[S+]3CC[S+](C1)[Ru-4]321([N]=C=S)[n]2c3ccc(OC)cc3c3c4c(c5cc(F)c[n+]1c5c32)C(=O)NC4=O (stereo not drawn) | KinomeScan | 0.1 µM | baseline: untreated | remaining binding | 84%
CNC(=O)C1CCN(c2cc(C)c(F)cc2NC(=O)c2ccc(-c3cc(O)ccc3C)c(C)c2)CC1 | binding, competition with immobilised ligand | 1 µM |  | remaining binding | 72%
O=C(Cc1ccc(OCc2ccccc2)cc1)NC1(C(=O)O)CCN(C(=O)c2ccc(-c3cccc(Cl)c3)cc2)CC1 | enzyme activity, inhibitor | 10 µM |  | activity vs control | 124%
Nc1ncc(-c2cc(-c3cnn(CC(F)(F)F)c3)ncc2F)nc1C(=O)NC1CNCC(F)C1 (stereo not drawn) | enzyme activity | 1 µM | baseline: DMSO control | remaining activity | 85.2%
CCn1cc(C(=O)O)c(=O)c2c(N)c(F)c(NC3CCCCC3)cc21 | kinase activity | 0.1 µM, together with: ATP at Km |  | inhibition | 11.7%
Nc1ncc2c(n1)-c1c([nH]c3ccc(C4=CCOCC4)cc13)CCC2 | binding, competition with immobilised ligand | 1 µM |  | remaining binding | 100%
C=CC(=O)N1CCCC(n2c(=O)c3ncccc3n(Cc3ccc(Oc4ccccc4)cc3)c2=O)C1 (stereo not drawn) | cell-free assay, competition with immobilised ligand | 1 µM |  | remaining binding | 100%
Cc1cccc(O[C@H]2CCC[C@@H](C(C)CNCc3ccncc3)C2)c1 (relative stereo) | enzyme activity, inhibitor | 10 µM |  | inhibition | -10%
COc1cc(Nc2nccc(-c3cnn4nc(OC)ccc34)n2)cc(C(F)(F)F)c1 | binding, competition with immobilised ligand | 1 µM |  | remaining binding | 100%

For quick reference, copied from above:
SMILES | test | setting | how to read | quantity | result
C[C@H]1CN(C(=O)c2cn(-c3ccnc(N)n3)c3cc(C#CC4(O)CCCCC4)ccc23)CCN1 | enzyme activity, inhibitor, FRET | 1 µM |  | inhibition | 0%
CCN1CCN(Cc2ccc(NC(=O)c3ccc(C)c(NC(=O)c4cncc(-c5cccs5)c4)c3)cc2C(F)(F)F)CC1 | binding, competition with immobilised ligand | 1 µM |  | remaining binding | 0.35%
